Values quoted from earlier work as cited in several papers.
Each numbered part shows a few of the values that one paper quotes. ± marks the error that the study gave.
Sequence of UniProt P02716 (whole entry, looked up): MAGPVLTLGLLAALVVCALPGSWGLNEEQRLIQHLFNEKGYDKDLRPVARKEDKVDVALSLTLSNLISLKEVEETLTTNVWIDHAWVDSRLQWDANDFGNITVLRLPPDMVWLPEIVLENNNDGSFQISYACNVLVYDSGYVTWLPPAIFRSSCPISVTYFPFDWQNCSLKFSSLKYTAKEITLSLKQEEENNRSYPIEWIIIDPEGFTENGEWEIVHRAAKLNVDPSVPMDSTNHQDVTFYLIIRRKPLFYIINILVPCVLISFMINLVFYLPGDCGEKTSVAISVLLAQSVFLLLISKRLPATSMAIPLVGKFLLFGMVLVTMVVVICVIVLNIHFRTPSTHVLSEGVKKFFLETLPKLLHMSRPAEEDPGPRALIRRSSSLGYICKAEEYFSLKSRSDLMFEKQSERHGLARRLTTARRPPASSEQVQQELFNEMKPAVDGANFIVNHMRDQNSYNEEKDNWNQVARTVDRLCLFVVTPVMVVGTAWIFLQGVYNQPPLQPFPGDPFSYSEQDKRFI
Sequence of UniProt P20782 (whole entry, looked up): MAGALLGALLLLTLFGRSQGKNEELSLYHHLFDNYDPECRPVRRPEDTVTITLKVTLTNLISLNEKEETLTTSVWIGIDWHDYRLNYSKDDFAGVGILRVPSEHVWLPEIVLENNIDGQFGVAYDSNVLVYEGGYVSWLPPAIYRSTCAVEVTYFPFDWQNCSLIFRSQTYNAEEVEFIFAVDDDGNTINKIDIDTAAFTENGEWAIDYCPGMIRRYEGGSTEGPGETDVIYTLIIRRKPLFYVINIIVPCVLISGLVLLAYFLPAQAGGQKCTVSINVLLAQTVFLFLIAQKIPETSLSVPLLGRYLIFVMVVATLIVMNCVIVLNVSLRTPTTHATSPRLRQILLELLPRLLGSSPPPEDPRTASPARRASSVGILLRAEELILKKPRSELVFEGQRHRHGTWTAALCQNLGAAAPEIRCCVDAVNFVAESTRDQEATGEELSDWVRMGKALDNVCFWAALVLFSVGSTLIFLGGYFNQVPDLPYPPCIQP
Sequence of UniProt Q01959 (whole entry, looked up): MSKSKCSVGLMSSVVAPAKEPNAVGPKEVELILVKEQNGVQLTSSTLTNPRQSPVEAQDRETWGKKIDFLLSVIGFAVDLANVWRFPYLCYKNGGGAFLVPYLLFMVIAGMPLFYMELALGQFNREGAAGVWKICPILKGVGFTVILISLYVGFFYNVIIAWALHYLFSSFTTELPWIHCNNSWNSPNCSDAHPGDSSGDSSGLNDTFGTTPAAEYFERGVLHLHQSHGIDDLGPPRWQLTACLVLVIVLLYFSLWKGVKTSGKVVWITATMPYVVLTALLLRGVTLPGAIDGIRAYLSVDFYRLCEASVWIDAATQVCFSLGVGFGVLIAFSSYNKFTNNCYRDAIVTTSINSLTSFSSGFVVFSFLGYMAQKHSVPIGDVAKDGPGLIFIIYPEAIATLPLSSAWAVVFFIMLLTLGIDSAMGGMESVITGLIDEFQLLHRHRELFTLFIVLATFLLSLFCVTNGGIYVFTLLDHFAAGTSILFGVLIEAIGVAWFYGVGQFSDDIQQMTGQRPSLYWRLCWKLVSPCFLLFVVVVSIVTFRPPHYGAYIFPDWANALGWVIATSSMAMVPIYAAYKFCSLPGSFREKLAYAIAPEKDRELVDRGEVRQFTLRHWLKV
Sequence of UniProt Q2M2I8 (whole entry, looked up): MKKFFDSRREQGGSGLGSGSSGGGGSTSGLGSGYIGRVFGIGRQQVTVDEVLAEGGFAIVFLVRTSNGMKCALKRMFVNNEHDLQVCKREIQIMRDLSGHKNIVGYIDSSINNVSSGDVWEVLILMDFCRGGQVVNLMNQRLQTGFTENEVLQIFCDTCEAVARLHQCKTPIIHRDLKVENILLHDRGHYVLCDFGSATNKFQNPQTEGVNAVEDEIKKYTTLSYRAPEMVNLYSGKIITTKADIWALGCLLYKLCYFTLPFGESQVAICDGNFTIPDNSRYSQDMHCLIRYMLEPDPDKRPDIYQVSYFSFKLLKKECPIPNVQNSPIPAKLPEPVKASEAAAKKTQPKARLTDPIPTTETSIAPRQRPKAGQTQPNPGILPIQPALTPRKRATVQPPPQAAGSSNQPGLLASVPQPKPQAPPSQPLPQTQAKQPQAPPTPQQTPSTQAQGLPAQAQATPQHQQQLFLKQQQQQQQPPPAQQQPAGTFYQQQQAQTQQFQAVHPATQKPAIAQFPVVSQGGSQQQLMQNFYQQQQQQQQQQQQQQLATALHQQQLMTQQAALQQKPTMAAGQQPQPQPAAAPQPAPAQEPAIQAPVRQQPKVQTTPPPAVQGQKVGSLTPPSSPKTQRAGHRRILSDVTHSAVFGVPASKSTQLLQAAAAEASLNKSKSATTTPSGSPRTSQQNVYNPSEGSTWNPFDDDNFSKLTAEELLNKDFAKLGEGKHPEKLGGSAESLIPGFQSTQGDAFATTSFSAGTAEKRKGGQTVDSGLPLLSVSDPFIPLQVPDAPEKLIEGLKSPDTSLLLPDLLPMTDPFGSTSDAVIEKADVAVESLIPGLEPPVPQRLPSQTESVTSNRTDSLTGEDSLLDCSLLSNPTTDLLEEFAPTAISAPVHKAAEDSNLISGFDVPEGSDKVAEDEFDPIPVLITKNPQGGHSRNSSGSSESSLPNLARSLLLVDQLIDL
Sequence of UniProt P04756 (whole entry, looked up): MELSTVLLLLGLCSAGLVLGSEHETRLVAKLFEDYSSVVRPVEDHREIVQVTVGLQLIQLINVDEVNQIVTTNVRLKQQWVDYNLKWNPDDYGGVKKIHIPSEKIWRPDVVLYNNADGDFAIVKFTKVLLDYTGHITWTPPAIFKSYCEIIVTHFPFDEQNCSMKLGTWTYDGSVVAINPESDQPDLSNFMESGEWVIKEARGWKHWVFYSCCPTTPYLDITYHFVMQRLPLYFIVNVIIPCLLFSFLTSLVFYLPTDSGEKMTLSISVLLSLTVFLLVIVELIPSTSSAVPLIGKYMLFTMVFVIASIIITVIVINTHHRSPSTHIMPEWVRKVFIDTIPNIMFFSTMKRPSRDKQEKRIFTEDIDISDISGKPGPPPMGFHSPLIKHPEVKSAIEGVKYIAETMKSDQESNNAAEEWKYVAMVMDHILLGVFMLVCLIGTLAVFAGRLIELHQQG

Sample 1 — read-out: peptide-MHC binding; molecule type: peptide; measurement: IC50
Target: HLA class I histocompatibility antigen, A alpha chain, allele A*26:03 (Homo sapiens, UniProt P04439)
AADFPGIAR: > 20 µM
ALFHKVQSY: > 20 µM
EEDAAVDDL: > 20 µM
VLYCVHQRV: > 20 µM
IHSDQLSKF: > 20 µM
RSLYNTIATLY: > 20 µM
IISTNTLGK: > 20 µM
WHQARFEEL: > 20 µM
ASFKAGKLR: > 20 µM
LLRRRPYPL: > 20 µM
SQIETGTPF: 0.07 µM
DTWHGFKNM: 0.011 µM
QVGIFLICK: > 20 µM
RSLFNTIATLY: > 20 µM
DPKKTGGPI: > 20 µM
VQKVNPAPK: > 20 µM
FMKVKFEAL: > 20 µM
INTLESMMK: > 20 µM
KELENEYYF: > 20 µM
KYFVRSTEK: > 20 µM
TIIDRIGPY: 0.009 µM
STFAASGPF: 0.187 µM
IATLYCVHQR: > 20 µM
STYQPLPLY: 0.251 µM
EIRHRSGIQ: > 20 µM

Other studies, line by line
COc1ccc(Cc2nccc3cc(OC)c(OC)cc23)cc1OC  LD50 (rodent): ~30 mg/kg
C[Si]1(C)O[Si](C)(C)O[Si](C)(C)O[Si](C)(C)O[Si](C)(C)O1  bioconcentration factor (Poecilia reticulata; concentration not given): < 1200 L/kg wet weight
CN(N=O)c1ccc(F)cc1  Ames test result (Salmonella typhimurium; TA1535; up to 1000 µg/plate, pre-incubation, and plate incorporation, added: induced rat and hamster liver S9): negative
Cc1cccc2c1ccc1cc(C(C)C)ccc12  Vmax (metabolism, substrate; human liver microsomes): 5.64 pmol/min/mg
CC(O)CN1CCN(CC(=O)[O-])CCN(CC(=O)[O-])CCN(CC(=O)[O-])CC1.[Gd+3] (centres unmarked)  relaxivity r1 (human plasma; 310 K, 1.41 T): 4.2 mM⁻¹ s⁻¹
CCN(CC)CCOc1ccc2c(c1)C(=O)c1cc(OCCN(CC)CC)ccc1-2  intrinsic clearance (human liver microsomes): 10.9 µL/min/mg protein
O=C1N[C@@H]2CCCC[C@H]2N[C@@H]1c1c[nH]c2ncccc12  IC50 (COLO 205; cytotoxicity): > 100 µM
O=C(O)C(F)(F)C(F)(F)C(F)(F)C(F)(F)C(F)(F)C(F)(F)C(F)(F)C(F)(F)C(F)(F)C(F)(F)F  activity (CYP2C19; concentration not given): inactive
Clc1ccc(Nc2nc3ccccc3c3nc(C4CCCCC4)[nH]c23)cc1Cl  activity (other adenosine receptors; concentration not given): inactive
CNS(=O)(=O)Nc1nccc(Cc2c(C)c3ccc(Oc4ncccn4)cc3oc2=O)c1F  maximum tolerated dose (human patients; oral, once daily): 2.25 mg
COC(=O)[C@@H]1C[C@H](OC(C)=O)C(=O)[C@H]2[C@@]1(C)CC[C@H]1C(=O)O[C@H](c3ccoc3)C[C@]21C  Ki (kappa opioid receptor Y313A): 0.694 ± 0.106 µM
N[C@@H](CO)C(=O)O  EC50 (Tsr chemoreceptor; binding, high affinity, FRET): ~0.1 µM
CC(=O)N(N(CCCl)S(C)(=O)=O)S(C)(=O)=O  lethal toxic dose (mouse, L1210 leukemia; single dose): ≥ 60 mg/kg
CNC(=O)c1c(N(C)N=O)ncn1C  Ames test result (Salmonella typhimurium; TA98, TA100, TA102, TA1535, TA1537; up to 1690 nmol per plate, with and without S9): negative
CN1CC[C@@H](c2c(O)cc(O)c3c(=O)cc(-c4ccc(C(F)(F)F)cc4Cl)oc23)[C@@H]1CO  maximum tolerated dose (patients with solid tumours; continuous daily dosing): 350 mg
O=S(=O)(O)C(F)(F)C(F)(F)C(F)(F)C(F)(F)F  IC50 (CYP2C19; inhibitor; Tox21 screening): 44.9 ± 18.1 µM
CCN(CC)CCCC(C)Nc1c2ccc(Cl)cc2nc2ccc(OC)cc12 (centres unmarked)  intrinsic clearance (mouse liver microsomes): 110 µL/min/mg protein
O=C(Nc1cnccc1CO)[C@@H]1CCOc2ccc(Cl)cc21  inhibition (main protease (Mpro); 20 µM): 64.5%
C[N+](C)(C)C  Kd (Chrnd/Chrna1/Chrne (Mus musculus, UniProt P02716+P04756+P20782); wild-type receptor): 800 µM
CCCCN1CCC(COC(=O)c2ccc(N)c(OC)c2)CC1 [carbon-11 labelled]  Ki (SIGMAR1 (Homo sapiens, UniProt Q99720)): 0.211 µM
CS(=O)(=O)NN(CCCl)S(C)(=O)=O  IC90 ratio (L1210; baseline: MGMT-transfected over wild type): ~22 fold
Fc1ccc(C(OCCN2CCN(CCCc3ccccc3)CC2)c2ccc(F)cc2)cc1  Hill coefficient (SLC6A3 (Homo sapiens, UniProt Q01959); historical reference value): 0.9
COc1ccccc1OCCNC(=O)c1cc(=O)[nH]c2cc(F)ccc12  inhibition (main protease (Mpro); 20 µM): -6.6%
c1ccc2c(c1)OCC(C1=NCCN1)O2 (centres unmarked)  Ki (imidazoline I2 receptor; binding; central nervous system; historical reference value): 0.008 µM
COc1ccc(-c2cnc3[nH]cc(C#Cc4cccnc4)c3c2)cc1OC  IC50 (AAK1 (Homo sapiens, UniProt Q2M2I8)): 0.004 µM

Repeated from above (sample 1):
QVGIFLICK: > 20 µM
RSLFNTIATLY: > 20 µM
DPKKTGGPI: > 20 µM
